Assay results of several laboratories.
Numbered parts are unrelated; each lists some results of a single study. Substitutions count along the parent as printed.
Sequence of UniProt Q01959 (whole entry, looked up): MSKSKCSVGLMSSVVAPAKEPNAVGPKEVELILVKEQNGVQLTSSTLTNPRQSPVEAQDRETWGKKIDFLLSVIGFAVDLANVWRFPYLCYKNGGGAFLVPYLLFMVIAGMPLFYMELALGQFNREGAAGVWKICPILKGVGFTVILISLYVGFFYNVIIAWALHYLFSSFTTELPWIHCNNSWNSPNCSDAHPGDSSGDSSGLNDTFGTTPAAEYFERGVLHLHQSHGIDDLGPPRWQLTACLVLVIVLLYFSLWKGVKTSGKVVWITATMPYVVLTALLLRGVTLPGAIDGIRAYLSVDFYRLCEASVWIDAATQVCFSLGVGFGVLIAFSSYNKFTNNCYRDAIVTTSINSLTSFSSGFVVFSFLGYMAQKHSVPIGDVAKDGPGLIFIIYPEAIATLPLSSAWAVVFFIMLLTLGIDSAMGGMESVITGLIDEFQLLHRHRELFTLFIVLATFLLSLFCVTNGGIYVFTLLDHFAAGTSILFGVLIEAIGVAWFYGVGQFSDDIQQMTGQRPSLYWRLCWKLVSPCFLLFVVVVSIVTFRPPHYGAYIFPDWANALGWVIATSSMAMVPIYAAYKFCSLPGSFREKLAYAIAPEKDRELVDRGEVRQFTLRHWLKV

Sample 1
Target: Phosphate system positive regulatory protein PHO4, full length, GST-tagged (PHO4, Saccharomyces cerevisiae, UniProt P07270, residues 1-312)
Technique: competition protein-binding microarray
Form: double-stranded DNA, one strand shown
Medium: in vitro
Tested at: 2 µM
Setting: whole 60-bp probe, lowest competitor level
Added: Cbf1 competitor, 0.05 µM
Direction: higher = stronger binding
Quantity: fluorescence intensity
Constant ends, left off below: … GTCTTGATTCGCTTGACGCTGCTG
Target sequence (chain): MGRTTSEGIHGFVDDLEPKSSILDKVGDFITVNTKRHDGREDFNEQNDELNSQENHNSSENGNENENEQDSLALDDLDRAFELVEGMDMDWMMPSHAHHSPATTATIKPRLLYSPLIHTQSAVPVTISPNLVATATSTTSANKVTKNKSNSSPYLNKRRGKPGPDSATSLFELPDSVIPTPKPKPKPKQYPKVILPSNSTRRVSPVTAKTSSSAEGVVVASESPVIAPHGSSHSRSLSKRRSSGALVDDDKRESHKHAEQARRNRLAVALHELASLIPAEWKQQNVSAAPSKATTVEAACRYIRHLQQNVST
Strand = AAAAGGTTGACTGGGCTCGTGAAGATTTCGAAAAGA; result = 4580 a.u.
Strand = CTAACGAAGGTTTGTCACTTAACTTACAAGCCAAGT; result = 3150 a.u.
Strand = TGGCATTCGTCTACCCACGTCTTGGGTGAATCTTGT; result = 6150 a.u.
Strand = TCATAGAAGGAAAAGCACATGGTACCCAGGCAGAGT; result = 11400 a.u.
Strand = AGATTATTACAAGTGGTCGTGATGGACGTAAAGTTT; result = 6020 a.u.
Strand = CGAAGAGGTTCCTATCACCTGCATTCGGTGTTTCTA; result = 4120 a.u.
Strand = AAAGCGGTAATTTGTCACGGTACTTCACATATCTAT; result = 4440 a.u.
Strand = GATTCATGGCTTCACCACGGGTCTTTGGCCAAGAGT; result = 7600 a.u.

Sample 2
Target: CCNB3, cyclin fold, Cln2 fusion (human)
Technique: yeast growth competition, sequencing
Medium: yeast
Setting: strong parent motif
Baseline: not given
Direction: higher = stronger binding
Quantity: normalised enrichment score
Starting sequence: viral docking peptide; TSVRRALFTGGSD; partner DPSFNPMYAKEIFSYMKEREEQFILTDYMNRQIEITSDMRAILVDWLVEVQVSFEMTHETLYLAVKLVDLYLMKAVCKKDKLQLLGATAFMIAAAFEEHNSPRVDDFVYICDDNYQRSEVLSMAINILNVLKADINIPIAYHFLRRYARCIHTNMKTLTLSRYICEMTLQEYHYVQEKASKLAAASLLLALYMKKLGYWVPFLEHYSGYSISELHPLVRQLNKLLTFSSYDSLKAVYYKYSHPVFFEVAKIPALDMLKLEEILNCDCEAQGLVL
Substitution = TSVRRRLFTGGSD [A6R]; result = 3.93
Substitution = TSVRRALFTGGDD [S12D]; result = 2.59
Substitution = TSVRRALFTGGED [S12E]; result = 2.17
Substitution = TVVRRALFTGGSD [S2V]; result = 1.06
Substitution = TSVRRALFTGLSD [G11L]; result = 1.58
Substitution = TSVRRTLFTGGSD [A6T]; result = 6.31
Substitution = TSVRRCLFTGGSD [A6C]; result = 2.37
Substitution = TSYRRALFTGGSD [V3Y]; result = 0.416
Substitution = TSVRRMLFTGGSD [A6M]; result = 0.681
Substitution = TSVRCALFTGGSD [R5C]; result = 0.372
Substitution = TSVRRALNTGGSD [F8N]; result = 0.165
Substitution = TSVRRAAFTGGSD [L7A]; result = 0.177
Substitution = TSVRRALFTGSSD [G11S]; result = 2.08
Substitution = TSVARALFTGGSD [R4A]; result = 0.29
Substitution = TSVRSALFTGGSD [R5S]; result = -0.105
Substitution = TSNRRALFTGGSD [V3N]; result = -0.225
Substitution = TSVRRALFTHGSD [G10H]; result = 1.45
Substitution = TSVRMALFTGGSD [R5M]; result = 0.399

Sample 3
Target: Prothrombin, mature alpha-thrombin (F2, Homo sapiens, UniProt P00734)
Technique: aptamer microarray, sandwich
Form: DNA with 2'F-ANA
Medium: in vitro
Tested at: 200 nM
Setting: whole 15-mer aptamer, many near background
Added: Cy3 exosite-II aptamer, 400 nM
Direction: higher = stronger binding
Quantity: mean fluorescence intensity
Strand: GGTTGGTGTGGTTGG
Modification = 2'F-ANA at 1 4 5 7 8 9 10 14; result = 50.6 a.u.
Modification = 2'F-ANA at 1 8 12 13 14; result = 93.7 a.u.
Modification = 2'F-ANA at 2 6 11 13 14 15; result = 95.9 a.u.
Modification = 2'F-ANA at 1 7 11 12 13 14; result = 68.5 a.u.
Modification = 2'F-ANA at 1 2 8 9 13; result = 146 a.u.
Modification = 2'F-ANA at 3 4 7 11 12 13 15; result = 730 a.u.
Modification = 2'F-ANA at 1 2 3 6 7 8 9 10 11 12 13 15; result = 73.8 a.u.
Modification = 2'F-ANA at 2 4 6 8 10 11 13 15; result = 165 a.u.

Other studies, line by line
P1: PafA, mature enzyme, eGFP fusion (Elizabethkingia meningoseptica, UniProt Q9KJX5); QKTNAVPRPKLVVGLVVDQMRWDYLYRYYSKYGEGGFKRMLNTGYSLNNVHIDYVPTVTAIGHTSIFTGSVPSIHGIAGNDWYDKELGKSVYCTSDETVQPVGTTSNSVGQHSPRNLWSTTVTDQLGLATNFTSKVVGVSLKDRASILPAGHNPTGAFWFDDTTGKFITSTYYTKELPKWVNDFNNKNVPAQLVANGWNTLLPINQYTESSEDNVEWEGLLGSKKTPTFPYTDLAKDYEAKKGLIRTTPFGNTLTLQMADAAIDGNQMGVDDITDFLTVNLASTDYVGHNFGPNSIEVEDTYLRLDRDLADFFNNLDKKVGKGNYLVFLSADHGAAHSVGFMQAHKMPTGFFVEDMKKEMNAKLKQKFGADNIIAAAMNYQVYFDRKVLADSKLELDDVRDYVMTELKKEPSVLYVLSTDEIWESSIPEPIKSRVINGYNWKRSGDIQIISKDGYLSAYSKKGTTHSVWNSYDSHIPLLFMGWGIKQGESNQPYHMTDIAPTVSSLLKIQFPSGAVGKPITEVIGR
Substance = COC(=O)c1cc(N(C)C(=O)c2ccn3ncc(-c4ccc(C(=O)O)cc4)c3c2)ccc1Cl; target = SLC6A3 (Homo sapiens, UniProt Q01959); test = cell-free assay; quantity = IC50; result = > 30 µM
Substance = P1 K346V; target = tungstate, free oxyanion; test = microfluidic competitive inhibition; test system = in vitro, cell-free expressed; conditions = not given, derived from inhibition constants, unchanged parent 2230 nM; scale = lower = stronger binding; quantity = oxyanion analog dissociation constant; result = 2.11 µM
